# Assay results from different studies.
# Every numbered part comes from another study and shows a few of its results, in no order. Positions count from the first letter of the parent shown.

# Sample 1
# Target: UBE2E2 UBC core domain (UniProt Q96LR5)
# Chain of UniProt Q96LR5 (whole entry, looked up): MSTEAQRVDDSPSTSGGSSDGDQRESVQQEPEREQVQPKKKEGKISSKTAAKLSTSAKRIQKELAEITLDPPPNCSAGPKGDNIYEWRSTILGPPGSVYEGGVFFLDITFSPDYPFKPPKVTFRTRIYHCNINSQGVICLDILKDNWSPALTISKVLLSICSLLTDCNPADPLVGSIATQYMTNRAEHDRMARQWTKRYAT
# Method: yeast two-hybrid
# Matrix: yeast
# Notes: mostly zero background
# Baseline: not given
# Direction: higher = stronger interaction
# B1: ZMIZ2 RING domain (UniProt Q8NF64); chain GTIPGTPGPNGEDGVEQTAIKVSLKCPITFRRIQLPARGHDCRHIQCFDLESYLQLNCERGTWRCPVCNKTALLEGLEVDQYMLGILIYIQNSDYEEITIDPTCSWK
# B2: RNF133 RING domain (UniProt Q8WVZ7); chain DEEINPNGDSCVICFERYKPNDIVRILTCKHFFHKNCIDPWILPHGTCPICKCDILKVLGIQ
# B3: SYTL4 RING domain (UniProt Q96C24); chain RGSQHYSDRTCARCQESLGRLSPKTNTCRGCNHLVCRDCRIQESNGTWRCKVCAKEIELKKAT
# B4: RBCK1 RING domain (UniProt Q9BYM8); chain SLVLNTEPAECPVCYSVLAPGEAVVLRECLHTFCRECLQGTIRNSQEAEVSCPFIDNTYSCSGKLLEREIK
# B5: DZIP3 RING domain (UniProt Q86Y13); chain PDEEEEEEEPCVICHENLSPENLSVLPCAHKFHAQCIRPWLMQQGTCPTCRLHVLLPEEFP
# B6: RNF121 RING domain (UniProt Q9H920); chain MPTKHLSDSVCAVCGQQIFVDVSEEGIIENTYRLSCNHVFHEFCIRGWCIVGKKQTCPYCKEKVDLKRMFS
Molecule,lacZ reporter activity
FDGDVDPDLKCALCHKVLEDPLTTPCGHVFCAGCVLPWVVQEGSCPARCRGRLSAKELN (PDZRN3 RING domain (UniProt Q9UPQ7)),0
B1 (ZMIZ2 RING domain),0
B2 (RNF133 RING domain),0
B3 (SYTL4 RING domain),0
B4 (RBCK1 RING domain),0
AVPSGLEENLCKICMDSPIDCVLLECGHMVTCTKCGKRMNECPICRQYVIRAVHVF (RFFL RING domain (UniProt Q8WZ73)),0
NLSELTPYILCSICKGYLIDATTITECLHTFCKSCIVRHFYYSNRCPKCNIVVHQTQPLY (PCGF6 RING domain (UniProt Q9BYE7)),0
GSRLQEINDVCAICYHEFTTSARITPCNHYFHALCLRKWLYIQDTCPMCHQKVYIEDDIK (RNF139 RING domain (UniProt Q8WU17)),0
B5 (DZIP3 RING domain),0
KETIKKTTKPCPRCHVPVEKNGGCMHMKCPQPQCRLEWCWNCGCEWNRVCMG (PRKN RING domain (UniProt O60260)),0
B6 (RNF121 RING domain),0
GSDDEEIPFKCFICRQSFQNPVVTKCRHYFCESCALQHFRTTPRCYVCDQQTNGVFNPA (RNF113A RING domain (UniProt O15541)),0

# Sample 2
# Target: FOS, bZIP domain (human)
# Method: DHFR protein complementation
# Matrix: yeast
# Notes: single substitutions, most at no-binding floor
# Baseline: wild-type JUN-FOS pair
# Direction: higher = stronger binding
# Parent: JUN, bZIP domain (human); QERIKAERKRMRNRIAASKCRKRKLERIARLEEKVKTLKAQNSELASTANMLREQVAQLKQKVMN; partner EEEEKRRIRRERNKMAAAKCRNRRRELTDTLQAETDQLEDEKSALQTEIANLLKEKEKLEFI
Change,binding fitness
A29G,-0.185 natural log
E44M,-0.0537 natural log
E33V,-0.334 natural log
V56Q,-1.38 natural log
L31W,-0.455 natural log
L45T,-1.34 natural log
L59S,-1.09 natural log
K34N,-0.109 natural log
T48D,-0.463 natural log
A40E,0.0251 natural log
K39S,-0.451 natural log
Q58F,-0.162 natural log
L52A,-1.24 natural log
N42D,-1.54 natural log
E33A,-0.0771 natural log
L52G,-1.22 natural log
A49F,-1.02 natural log
E54Y,-0.262 natural log
E32I,-0.225 natural log
L59R,-1.21 natural log
K34F,-0.631 natural log
A57S,-0.172 natural log
S43L,-0.0304 natural log
K39W,-1.14 natural log
K36T,-0.119 natural log

# Sample 3
# Target: Eukaryotic initiation factor 4A-I (EIF4A1, Homo sapiens, UniProt P60842, residues 1-406, full length assumed)
# Chain of UniProt P60842 (whole entry, looked up): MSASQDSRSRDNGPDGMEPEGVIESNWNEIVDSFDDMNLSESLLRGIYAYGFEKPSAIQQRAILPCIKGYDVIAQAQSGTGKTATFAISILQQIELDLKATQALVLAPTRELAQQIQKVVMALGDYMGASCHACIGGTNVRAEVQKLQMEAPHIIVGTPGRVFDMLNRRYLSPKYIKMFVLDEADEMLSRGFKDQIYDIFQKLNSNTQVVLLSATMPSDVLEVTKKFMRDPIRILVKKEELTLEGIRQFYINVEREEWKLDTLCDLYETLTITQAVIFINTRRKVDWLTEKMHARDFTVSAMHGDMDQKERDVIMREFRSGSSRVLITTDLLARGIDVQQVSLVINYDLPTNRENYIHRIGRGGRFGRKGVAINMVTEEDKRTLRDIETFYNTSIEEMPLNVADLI
# Method: RNA Bind-n-Seq
# Molecule type: RNA
# Matrix: in vitro
# Concentration: not given
# Notes: 4-mer, random 30-nt RNA, single round
# Together with: RocA, ADP, phosphate
# Baseline: input library
# Direction: higher = stronger binding
Oligonucleotide,4-mer enrichment [fold]
CUAC,0.565
CCAG,0.722
ACUG,0.754
AUCA,0.713
UCAU,0.634
AAGC,0.925
GUGG,1.31
ACAC,0.649
UAGU,0.972
CGAG,1.75
AUCG,0.779
AGUC,1.03
UUGU,0.968
GCAA,0.935
AAAG,1.45
CAAC,0.646

# Sample 4
# Target: Sal-like protein 4, full length isoform A (SALL4, Homo sapiens, UniProt Q9UJQ4, residues 1-1053)
# Chain of UniProt Q9UJQ4 (whole entry, looked up): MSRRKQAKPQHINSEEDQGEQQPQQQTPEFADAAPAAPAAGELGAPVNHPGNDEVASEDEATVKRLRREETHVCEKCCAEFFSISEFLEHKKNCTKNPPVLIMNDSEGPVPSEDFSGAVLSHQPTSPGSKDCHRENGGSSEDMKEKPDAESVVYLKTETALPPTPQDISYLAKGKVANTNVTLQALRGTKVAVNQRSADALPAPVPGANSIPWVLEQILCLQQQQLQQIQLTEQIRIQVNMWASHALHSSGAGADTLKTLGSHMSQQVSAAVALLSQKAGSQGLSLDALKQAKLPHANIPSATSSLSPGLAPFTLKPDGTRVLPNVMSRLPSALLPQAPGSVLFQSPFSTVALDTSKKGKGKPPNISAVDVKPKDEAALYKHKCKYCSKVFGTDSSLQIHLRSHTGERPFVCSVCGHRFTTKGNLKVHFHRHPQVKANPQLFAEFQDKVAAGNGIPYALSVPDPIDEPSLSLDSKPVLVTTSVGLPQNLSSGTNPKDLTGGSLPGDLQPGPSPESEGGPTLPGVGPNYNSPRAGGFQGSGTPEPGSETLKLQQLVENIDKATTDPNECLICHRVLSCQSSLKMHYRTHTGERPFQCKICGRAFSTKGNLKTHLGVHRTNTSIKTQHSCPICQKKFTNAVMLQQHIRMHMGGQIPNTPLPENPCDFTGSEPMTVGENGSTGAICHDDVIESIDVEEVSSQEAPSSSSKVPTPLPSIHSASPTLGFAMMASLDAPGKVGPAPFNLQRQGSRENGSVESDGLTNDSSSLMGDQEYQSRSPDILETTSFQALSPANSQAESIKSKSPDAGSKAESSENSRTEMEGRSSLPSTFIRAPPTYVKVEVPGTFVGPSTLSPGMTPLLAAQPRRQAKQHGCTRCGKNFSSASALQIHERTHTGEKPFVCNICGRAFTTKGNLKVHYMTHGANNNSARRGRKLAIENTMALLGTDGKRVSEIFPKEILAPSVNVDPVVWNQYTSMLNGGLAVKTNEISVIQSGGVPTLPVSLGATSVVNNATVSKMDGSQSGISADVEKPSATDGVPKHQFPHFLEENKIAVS
# Method: universal PBM
# Molecule type: double-stranded DNA, one strand shown
# Matrix: in vitro
# Concentration: 600 nM
# Notes: 8-mer, flanks averaged, mean of replicates
# Direction: higher = stronger binding
Oligonucleotide,E-score
TCTTAAAA,0.25
AGTCGCTA,-0.0554
CCACGACG,-0.231
GGTACAGA,-0.00439
ACATTCTG,0.0949
ACCAGTCC,-0.379
ACATTTGC,0.0419
CACATCTC,0.0475
GACACACA,0.128
AAAGTTCG,-0.0147
GGGGCGGA,-0.264
ACCGTATG,0.0916
GTGCGCCA,-0.24
GCAGTCAA,-0.16
AAGAAAAG,0.0876
CATGTCCG,-0.29
ACAAAGAG,-0.069
GGGGCGCA,-0.29
CCCCCGTA,-0.362
AAATAAGC,0.21
ACTCGGCA,-0.206
CTAGTGGA,-0.198
CCATGGAC,-0.305
TACGCCCA,-0.135
CGAAGTCA,0.0362

# Sample 5
# Target: Histone acetyltransferase KAT6A, winged helix 1, GST fusion (KAT6A, Homo sapiens, UniProt Q92794, residues 1-85)
# Method: protein binding microarray
# Molecule type: double-stranded DNA, one strand shown
# Matrix: in vitro
# Concentration: not given
# Notes: 8-mer, flanks averaged, mean of 2 arrays, mostly near background
# Baseline: not given
# Direction: higher = stronger binding
# Construct (chain): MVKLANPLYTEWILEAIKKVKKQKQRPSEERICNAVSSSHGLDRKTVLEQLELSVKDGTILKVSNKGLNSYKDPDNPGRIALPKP
Oligonucleotide,E-score
GCGTCAAC,0.256
AAATCATC,-0.304
AAGTGCTG,-0.23
CCAAATCG,-0.0417
ATCTAGCG,0.139
CACACTCG,-0.0135
CGAATATA,-0.119
ACCTCTCG,-0.0284
CTAGTACA,-0.0891
CTGTCCAA,-0.126
ACGAAGCC,0.0502
TATACAGA,-0.0541
ATTAGGAA,-0.0226
AGCATTTC,-0.128
CTGAAAAG,-0.102
ACCGGATA,0.00959
ATCGGTGG,-0.00651
AGTCAACG,-0.0412
CAAAACAC,-0.0961
ATCTAATC,-0.106
GGACGGCA,0.317
CTAGAAGA,-0.224
CTCTACCA,-0.103
TAGCTCCA,-0.188
ATACTAAT,-0.112

# Sample 6
# Target: CCNB3, cyclin fold, Cln2 fusion (human)
# Method: yeast growth competition, sequencing
# Matrix: yeast
# Notes: weak parent motif
# Baseline: not given
# Direction: higher = stronger binding
# Parent: CDC6 docking peptide (human); TLKGRRLVFDNQL; partner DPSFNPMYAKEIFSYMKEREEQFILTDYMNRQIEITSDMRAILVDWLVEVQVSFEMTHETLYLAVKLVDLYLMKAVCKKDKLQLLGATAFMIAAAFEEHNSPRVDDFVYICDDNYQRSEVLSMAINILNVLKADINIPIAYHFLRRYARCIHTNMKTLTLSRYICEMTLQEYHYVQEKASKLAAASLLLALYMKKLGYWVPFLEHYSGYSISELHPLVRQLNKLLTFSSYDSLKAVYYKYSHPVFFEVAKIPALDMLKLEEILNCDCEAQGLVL
Change,normalised enrichment score
L13H,-0.0617
G4C,0.768
R6A,0.00908
L2E,-0.183
L2F,0.167
L7D,-0.0172
L7M,0.0589
K3I,0.445
V8Y,0.255
L2Y,0.00285
K3E,0.385
R5Y,-0.294
L13P,0.463
L7R,0.19
G4H,0.344
V8E,0.518
G4I,0.667
G4N,0.0979
F9A,0.169
D10F,0.0597
D10W,0.0635
K3Q,0.13
V8L,0.638

# For quick reference, copied from above (sample 6):
Change,normalised enrichment score
V8L,0.638
V8E,0.518
K3E,0.385
G4H,0.344
G4C,0.768
D10F,0.0597
L13H,-0.0617
L7D,-0.0172
